Experimental data collected from several papers.
± gives the spread as reported.

Compound | test | system | setting | scale | endpoint | result
Cn1cnc2c(F)c(Nc3ccc(Br)cc3Cl)c(C(=O)NOCCO)cc21 | population PK model | human, plasma | oral, nonlinear absorption model, fasted |  | absorption lag time | 0.4 h
NC(=O)N1c2ccccc2CC(=O)c2ccccc21 | population PK model | human | oral |  | absorption rate constant | 0.269 h⁻¹
CC(C)N(CCCCOCC(=O)NS(C)(=O)=O)c1cnc(-c2ccccc2)c(-c2ccccc2)n1 |  | healthy human, plasma | oral, population estimate |  | absorption rate constant | 1.08 h⁻¹
CNC(=O)c1c(C)oc2cc(Oc3ncnc4cc(OC)c(OC)cc34)ccc12 | final population PK model | human | oral, no proton pump inhibitor |  | absorption rate constant ka | 2.52 per h
NC(N)=NCCC[C@@H](N)C(=O)N[C@@H](CCCN=C(N)N)C(=O)N1CCC[C@H]1C(=O)N1C[C@H](O)C[C@H]1C(=O)NCC(=O)N[C@@H](Cc1cccs1)C(=O)N[C@@H](CO)C(=O)N1Cc2ccccc2C[C@@H]1C(=O)N1[C@H](C(=O)N[C@@H](CCCN=C(N)N)C(=O)O)C[C@@H]2CCCC[C@@H]21 | popPK full model bootstrap median | human | subcutaneous |  | absorption lag time | 0.0428 h
CC[C@@H]1CN(C(=O)NCC(F)(F)F)C[C@@H]1c1cnc2cnc3[nH]ccc3n12 | population PK modelling | human | oral, immediate-release formulation, outliers excluded |  | absorption lag time | 0.2 h
COC(=O)N[C@H](C(=O)N1CCC[C@H]1c1nc(-c2ccc(-c3ccc(-c4c[nH]c([C@@H]5CCCN5C(=O)[C@@H](NC(=O)OC)C(C)C)n4)cc3)cc2)c[nH]1)C(C)C |  | human, both sexes | oral, popPK base model, one-compartment |  | absorption rate constant | 0.879 h
CC(O)(CC(=O)O)CC(=O)O | binding, equilibrium dialysis LC-MS |  | 5 µM, thermostabilized A2AR-BRIL construct | reference: no-protein control, direction not given | z-scored log2 fold change | 0.301
NC(=O)c1cnc2[nH]ccc2c1N[C@@H]1[C@@H]2CC3C[C@H]1C[C@@](O)(C3)C2 |  | healthy human volunteers, plasma | oral, population PK model, bootstrap median |  | absorption rate constant | 4.99 h⁻¹
NC1(C(=O)N[C@@H](CCO)c2ccc(Cl)cc2)CCN(c2nc[nH]c3nccc2-3)CC1 |  | human | tablets |  | absorption lag time | 0.287 h
CN1CC[C@@H](NC(=O)Nc2ccc(C#N)cc2)C[C@@H]1c1nc2ccccc2[nH]1 |  | human cancer patients, plasma | oral, population PK base model |  | absorption rate constant ka | 0.07 h⁻¹
N[C@@H]1c2cccnc2[C@H](OC(=O)N2CCC(n3c(=O)[nH]c4ncccc43)CC2)CC[C@H]1c1cccc(F)c1F |  | human | oral |  | absorption rate constant | 3.86 h⁻¹
O=C(O)[C@H]1/C(=C/CO)O[C@@H]2CC(=O)N21 | population PK model | human, plasma | oral |  | absorption rate constant | 0.781 h⁻¹
COc1cc(N2CCC3(CCN(C)CC3)CC2)ccc1Nc1ncc(Cl)c(Nc2ccccc2P(C)(C)=O)n1 | population PK model | human | oral, fed subjects, bootstrap median |  | absorption lag time | 0.473 h
COc1ccc(-n2nc(C(N)=O)c3c2C(=O)N(c2ccc(N4CCCCC4=O)cc2)CC3)cc1 |  | human, plasma | oral, Final population PK model |  | absorption rate constant | 0.486 ± 0.0215 h⁻¹
C[C@@H](CO)C(=O)O | binding, equilibrium dialysis LC-MS |  | 5 µM, thermostabilized A2AR-BRIL construct | reference: no-protein control, direction not given | z-scored log2 fold change | 0.783
Cc1cn(-c2cc(NC(=O)c3ccc(C)c(Nc4nccc(-c5cccnc5)n4)c3)cc(C(F)(F)F)c2)cn1 | population PK model, typical value | human, plasma | oral, fasted state |  | absorption lag time (ALAG1) | 0.0866 h
C[C@@H]1CCO[C@H]2Cn3cc(C(=O)NCc4ccc(F)cc4F)c(=O)c(O)c3C(=O)N12 | population PK model | paediatric humans, plasma | oral, film-coated tablet |  | absorption rate constant | 0.854 h⁻¹
